Assay results from different studies.
Numbered parts are unrelated; each lists some results of a single study. ± marks the error that the study gave.
Chain of UniProt P08581 (whole entry, looked up): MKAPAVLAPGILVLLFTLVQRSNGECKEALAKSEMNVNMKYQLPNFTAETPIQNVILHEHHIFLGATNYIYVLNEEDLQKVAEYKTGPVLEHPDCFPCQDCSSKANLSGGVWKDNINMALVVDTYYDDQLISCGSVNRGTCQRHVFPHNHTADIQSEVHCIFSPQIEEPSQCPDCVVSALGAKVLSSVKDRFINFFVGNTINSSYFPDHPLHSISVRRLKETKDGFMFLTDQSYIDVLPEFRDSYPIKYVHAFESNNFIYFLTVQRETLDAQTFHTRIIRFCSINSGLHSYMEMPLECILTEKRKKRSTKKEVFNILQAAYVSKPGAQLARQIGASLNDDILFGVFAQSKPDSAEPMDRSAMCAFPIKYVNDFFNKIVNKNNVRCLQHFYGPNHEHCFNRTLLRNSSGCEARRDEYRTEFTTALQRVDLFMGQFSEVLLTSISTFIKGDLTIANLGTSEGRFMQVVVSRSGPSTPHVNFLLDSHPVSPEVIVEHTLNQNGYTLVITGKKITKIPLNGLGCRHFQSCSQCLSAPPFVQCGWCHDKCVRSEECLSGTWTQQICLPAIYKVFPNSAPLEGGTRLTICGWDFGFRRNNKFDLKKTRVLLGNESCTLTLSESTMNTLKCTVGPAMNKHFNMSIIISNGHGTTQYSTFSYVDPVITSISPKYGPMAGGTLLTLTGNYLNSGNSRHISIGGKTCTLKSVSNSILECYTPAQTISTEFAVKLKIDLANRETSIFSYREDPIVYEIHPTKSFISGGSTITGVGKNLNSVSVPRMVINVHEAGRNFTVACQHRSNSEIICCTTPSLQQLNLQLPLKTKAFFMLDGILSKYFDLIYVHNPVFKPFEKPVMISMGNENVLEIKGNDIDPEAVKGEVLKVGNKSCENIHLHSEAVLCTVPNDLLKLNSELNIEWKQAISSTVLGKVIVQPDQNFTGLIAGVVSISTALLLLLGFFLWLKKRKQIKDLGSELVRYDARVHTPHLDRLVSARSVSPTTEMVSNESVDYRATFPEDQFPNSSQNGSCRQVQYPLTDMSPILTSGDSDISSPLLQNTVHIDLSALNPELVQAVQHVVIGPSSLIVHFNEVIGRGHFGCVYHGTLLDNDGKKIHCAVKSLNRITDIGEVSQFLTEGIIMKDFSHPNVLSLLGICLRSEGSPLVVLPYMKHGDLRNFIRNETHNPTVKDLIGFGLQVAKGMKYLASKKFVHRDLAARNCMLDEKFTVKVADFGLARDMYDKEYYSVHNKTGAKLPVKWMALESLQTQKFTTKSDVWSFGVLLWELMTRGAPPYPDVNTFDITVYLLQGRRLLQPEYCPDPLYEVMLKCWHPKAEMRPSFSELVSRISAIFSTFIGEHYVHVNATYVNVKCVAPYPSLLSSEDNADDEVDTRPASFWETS
Chain of UniProt Q9HAZ1 (whole entry, looked up): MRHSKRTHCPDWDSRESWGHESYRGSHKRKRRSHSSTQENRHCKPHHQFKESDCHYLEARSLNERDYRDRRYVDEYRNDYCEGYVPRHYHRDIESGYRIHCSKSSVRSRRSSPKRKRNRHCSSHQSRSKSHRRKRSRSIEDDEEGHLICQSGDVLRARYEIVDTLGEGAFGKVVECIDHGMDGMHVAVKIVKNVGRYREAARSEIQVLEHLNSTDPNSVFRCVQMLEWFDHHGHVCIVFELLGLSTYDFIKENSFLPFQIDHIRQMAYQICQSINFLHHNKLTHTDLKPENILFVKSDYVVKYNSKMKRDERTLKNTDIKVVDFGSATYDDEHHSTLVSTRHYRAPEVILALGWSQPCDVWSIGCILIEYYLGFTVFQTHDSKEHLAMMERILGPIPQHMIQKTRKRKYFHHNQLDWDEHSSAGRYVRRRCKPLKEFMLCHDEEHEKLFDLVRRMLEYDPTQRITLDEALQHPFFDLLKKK
Chain of UniProt P42681 (whole entry, looked up): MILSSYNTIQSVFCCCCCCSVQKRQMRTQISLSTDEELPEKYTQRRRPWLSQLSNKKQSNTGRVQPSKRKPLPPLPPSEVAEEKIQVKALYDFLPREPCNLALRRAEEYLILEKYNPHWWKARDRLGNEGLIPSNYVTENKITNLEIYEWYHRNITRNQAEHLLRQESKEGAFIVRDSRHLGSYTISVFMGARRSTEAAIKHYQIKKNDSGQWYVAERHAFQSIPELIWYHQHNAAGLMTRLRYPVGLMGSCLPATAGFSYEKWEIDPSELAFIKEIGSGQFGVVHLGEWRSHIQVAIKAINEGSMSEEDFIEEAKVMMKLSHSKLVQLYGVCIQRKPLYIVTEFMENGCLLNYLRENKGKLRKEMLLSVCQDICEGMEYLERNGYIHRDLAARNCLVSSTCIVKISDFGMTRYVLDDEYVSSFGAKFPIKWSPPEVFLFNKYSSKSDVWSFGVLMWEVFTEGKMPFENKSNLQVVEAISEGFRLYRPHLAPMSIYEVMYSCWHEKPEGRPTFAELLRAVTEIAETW
Chain of UniProt Q13464 (whole entry, looked up): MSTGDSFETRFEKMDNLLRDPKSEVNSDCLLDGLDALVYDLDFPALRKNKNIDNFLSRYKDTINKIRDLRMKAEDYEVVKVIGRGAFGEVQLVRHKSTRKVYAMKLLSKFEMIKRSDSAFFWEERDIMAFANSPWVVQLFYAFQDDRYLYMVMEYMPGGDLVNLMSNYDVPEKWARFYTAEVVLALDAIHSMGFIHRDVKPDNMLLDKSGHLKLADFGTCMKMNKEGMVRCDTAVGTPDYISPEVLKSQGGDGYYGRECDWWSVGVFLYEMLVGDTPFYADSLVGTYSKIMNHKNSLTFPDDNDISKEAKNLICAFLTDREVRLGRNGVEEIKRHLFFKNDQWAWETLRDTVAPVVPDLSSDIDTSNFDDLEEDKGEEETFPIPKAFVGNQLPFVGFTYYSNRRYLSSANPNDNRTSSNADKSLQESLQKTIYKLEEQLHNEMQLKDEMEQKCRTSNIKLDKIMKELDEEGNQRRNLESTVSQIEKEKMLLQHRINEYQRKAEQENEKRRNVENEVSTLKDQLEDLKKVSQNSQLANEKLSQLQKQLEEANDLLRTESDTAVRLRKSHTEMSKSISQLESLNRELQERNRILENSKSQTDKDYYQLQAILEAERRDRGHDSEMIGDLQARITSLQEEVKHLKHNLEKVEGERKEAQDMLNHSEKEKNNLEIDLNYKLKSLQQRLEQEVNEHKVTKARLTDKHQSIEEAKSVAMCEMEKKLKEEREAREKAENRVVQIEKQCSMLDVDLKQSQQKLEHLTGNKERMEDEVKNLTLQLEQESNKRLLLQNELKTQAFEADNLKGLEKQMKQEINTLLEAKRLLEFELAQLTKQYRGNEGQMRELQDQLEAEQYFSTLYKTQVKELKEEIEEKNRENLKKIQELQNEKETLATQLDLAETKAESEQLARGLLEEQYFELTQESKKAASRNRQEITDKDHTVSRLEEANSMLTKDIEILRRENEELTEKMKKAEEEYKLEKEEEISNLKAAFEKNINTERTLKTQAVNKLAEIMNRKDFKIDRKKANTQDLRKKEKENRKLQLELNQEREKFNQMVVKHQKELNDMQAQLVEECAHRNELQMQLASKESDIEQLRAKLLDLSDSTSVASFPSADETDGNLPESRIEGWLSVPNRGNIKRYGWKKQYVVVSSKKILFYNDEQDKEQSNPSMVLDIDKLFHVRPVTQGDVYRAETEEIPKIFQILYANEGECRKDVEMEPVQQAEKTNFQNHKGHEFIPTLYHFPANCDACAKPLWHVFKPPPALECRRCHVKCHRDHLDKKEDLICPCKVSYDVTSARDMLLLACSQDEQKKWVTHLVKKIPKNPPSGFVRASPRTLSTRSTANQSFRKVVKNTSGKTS
Chain of UniProt Q16539 (whole entry, looked up): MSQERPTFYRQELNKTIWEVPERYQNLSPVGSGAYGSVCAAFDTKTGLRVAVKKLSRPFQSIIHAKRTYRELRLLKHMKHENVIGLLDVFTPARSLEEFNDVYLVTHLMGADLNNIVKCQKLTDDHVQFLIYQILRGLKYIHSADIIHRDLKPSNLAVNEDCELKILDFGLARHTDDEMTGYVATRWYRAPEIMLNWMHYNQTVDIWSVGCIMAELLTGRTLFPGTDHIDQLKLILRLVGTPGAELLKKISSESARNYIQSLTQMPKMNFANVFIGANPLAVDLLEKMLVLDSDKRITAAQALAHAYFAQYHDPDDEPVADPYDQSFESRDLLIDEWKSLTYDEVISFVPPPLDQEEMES
Chain of UniProt Q9C098 (whole entry, looked up): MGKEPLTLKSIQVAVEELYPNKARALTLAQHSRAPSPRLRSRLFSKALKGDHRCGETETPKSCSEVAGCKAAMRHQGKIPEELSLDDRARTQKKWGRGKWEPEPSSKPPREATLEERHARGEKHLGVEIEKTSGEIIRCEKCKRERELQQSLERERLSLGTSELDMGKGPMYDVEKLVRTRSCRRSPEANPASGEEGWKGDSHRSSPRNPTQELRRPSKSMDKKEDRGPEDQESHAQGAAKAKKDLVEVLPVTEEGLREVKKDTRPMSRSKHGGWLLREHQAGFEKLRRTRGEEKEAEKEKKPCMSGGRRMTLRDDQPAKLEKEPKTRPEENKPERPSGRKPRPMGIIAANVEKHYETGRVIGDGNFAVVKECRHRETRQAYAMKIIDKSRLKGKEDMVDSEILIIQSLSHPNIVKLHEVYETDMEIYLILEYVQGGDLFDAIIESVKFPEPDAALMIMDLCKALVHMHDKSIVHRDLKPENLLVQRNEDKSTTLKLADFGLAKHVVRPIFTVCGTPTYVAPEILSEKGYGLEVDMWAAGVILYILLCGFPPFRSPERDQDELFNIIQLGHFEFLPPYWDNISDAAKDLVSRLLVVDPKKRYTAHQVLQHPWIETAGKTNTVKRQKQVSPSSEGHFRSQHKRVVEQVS

Study 1
Species: mouse
Sample: microsomes or S9
Tested at: 2 µM
Time: 0.5 h
With O=C(O)c1ccc(-c2nc3cc(Cl)c(Cl)cc3[nH]2)cc1 the remaining compound was 42.2%.
The remaining compound of Cc1c(O)ccc2c1oc1c(CC(C)C)c3c(O)nn(C(C)C)c3nc12 is reported as 61.5%.
O=C(Cn1ncccc1=O)N1Cc2cnc(N3CCOCC3)nc2C1 gave a remaining compound of 91.8%.
The remaining compound of O=C(c1scc2c1OCCO2)N1CCCC(Cn2ccnc2)C1 (stereo not shown) is reported as 63.2%.
The remaining compound of COC(=O)CCNC(=O)CCc1nnc(O)[nH]c1=O is reported as greater than 99%.
For CC1CCC(c2c[nH]c3ccc(Cl)cc23)C(=O)C1 (stereo not shown), the remaining compound was 4.85%.
The remaining compound of N#Cc1nc(-c2cccc3ccccc23)oc1NCc1cccnc1 is reported as 6.15%.

Study 2
SMILES: Fc1ccc(-c2nc3n(c2-c2ccncc2)CCS3)cc1
Observed: enzyme activity
Mode: inhibitor
Tested at: 0.5 µM
Reference: control
The remaining activity was 115% (CDC42BPB (Homo sapiens, UniProt Q9Y5S2)).
The remaining activity was 94.4% (CLK3 (Homo sapiens, UniProt P49761)).
The remaining activity was 106% (MAPK1 (Homo sapiens, UniProt P28482)).
For DCLK2 (Homo sapiens, UniProt Q8N568): remaining activity read 97.4%.
It gave 93.6% for remaining activity (MAP2K1 (Homo sapiens, UniProt Q02750)).
The remaining activity was 94.7% (TLK2 (Homo sapiens, UniProt Q86UE8)).
The remaining activity was 97.8% (PLK3 (Homo sapiens, UniProt Q9H4B4)).
MET (Homo sapiens, UniProt P08581) — remaining activity: 92.7%.
For Myosin-IIIb (MYO3B, Homo sapiens, UniProt Q8WXR4): remaining activity read 102%.
The remaining activity was 106% (CLK4 (Homo sapiens, UniProt Q9HAZ1)).
It gave 95.7% for remaining activity (KDR (Homo sapiens, UniProt P35968)).
It gave 94.9% for remaining activity (DDR2 (Homo sapiens, UniProt Q16832)).
It gave 43.1% for remaining activity (MAPK14 (Homo sapiens, UniProt Q16539)).
TXK (Homo sapiens, UniProt P42681) — remaining activity: 98.9%.

Study 3
Structure (SMILES): O=C1CCc2cc(Nc3cc(OC4CCOCC4)c([N+](=O)[O-])cc3Cl)ccc2N1
Observed: cell-free assay
Method: competition with immobilised ligand
Tested at: 1 µM
TNK2 (Homo sapiens, UniProt Q07912) — remaining binding: 100%.
The remaining binding was 99% (CDKL5 (Homo sapiens, UniProt O76039)).
For MET (Homo sapiens, UniProt P08581): remaining binding read 80%.
The remaining binding was 100% (TNIK (Homo sapiens, UniProt Q9UKE5)).
It gave 91% for remaining binding (DCLK3 (Homo sapiens, UniProt Q9C098)).
ROCK1 (Homo sapiens, UniProt Q13464) — remaining binding: 80%.
It gave 80% for remaining binding (DYRK1A (Homo sapiens, UniProt Q13627)).
For Ribosomal protein S6 kinase alpha-3, N-terminal kinase domain (RPS6KA3, Homo sapiens, UniProt P51812): remaining binding read 100%.

Study 4
SMILES: COc1cc(C(=O)N2CCC(N3CCN(C)CC3)CC2)ccc1Nc1ncc2c(n1)N(C)c1ccccc1C(=O)N2C
Observed: kinase activity
p38g MAPK; 10 µM — remaining activity: 106 ± 3%.
EF2K; 10 µM — remaining activity: 82 ± 3%.
The remaining activity was 78% (LKB1; 10 µM).
The remaining activity was 84 ± 2% (CDK2-cyclin A; 1 µM).
The remaining activity was 87 ± 9% (BRSK2; 10 µM).

Some of these lines once more (study 3):
It gave 91% for remaining binding (DCLK3 (Homo sapiens, UniProt Q9C098)).
ROCK1 (Homo sapiens, UniProt Q13464) — remaining binding: 80%.
It gave 80% for remaining binding (DYRK1A (Homo sapiens, UniProt Q13627)).
